# Experimental data pooled from the literature.
# Lines come from different studies, so protocols differ. Numbers after ± are the reported error.
SMILES,target or system,assay,system,setting,quantity,result
C=C1CC[C@@H]2[C@](C)(CCC[C@]2(C)C(=O)O)[C@H]1CC/C(C)=C/CO,"neuroblastoma M2, MYCN overexpressing","cell viability, SRB",,added: doxycycline,IC50,2.82 µg/mL
COc1c(C)c2c(c(O)c1C/C=C(\C)CCC(=O)O)C(=O)OC2,kidney cancer cell lines,cell proliferation,,average over lines,IC50,0.851 µM
Cc1ccc(NS(=O)(=O)c2cccc(C(=O)NC3CCN(c4ncnc5[nH]cnc45)CC3)c2)cc1,A549-ACE2,,,,IC50,> 200 µM
CCNCCc1c[nH]c2cccc(O)c12.CCNCCc1c[nH]c2cccc(O)c12.O=C(O)CCC(=O)O,,,C57BL/6J mice,"subcutaneous, 1 mg/kg",head twitch response,15.8 ± 2.8 count/30 min
Cc1cc(O)c2c(c1)C(=O)C=CC2=O,HFF-1,"cytotoxicity, MTT",,48 h,IC50,4.7 µM
CC(C)=CCOc1c2occc2cc2ccc(=O)oc12,COLO 320 multidrug-resistant,"cytotoxicity, MTT",,"24 h, 10% fetal bovine serum",IC50,> 100 µM
CN1CCN(S(=O)(=O)c2cc([N+](=O)[O-])ccc2N(CCOS(C)(=O)=O)CCOS(C)(=O)=O)CC1,sample BA T-ALL PDX cells,cell viability,ex vivo,"48 h, added: AKR1C3 inhibitor 1 µM, 1 h pretreatment",IC50,13 µM
c1csc(-c2ccc(-c3cccs3)s2)c1,PH5CH8,"steatosis, inhibitor, high-content imaging",,,IC50,~0.1 µM
CO/N=C1\C[C@]2(C[C@@H]3C[C@@H](C/C=C(\C)C[C@@H](C)/C=C/C=C4\CO[C@@H]5[C@H](O)C(C)=C[C@@H](C(=O)O3)[C@]45O)O2)O[C@H](/C(C)=C/C(C)C)[C@H]1C,CAR-luc cells,,,,IC50,22.3 ± 2.05 µM
CN(C)C(=O)c1cc2cnc(Nc3ccc(N4CCNCC4)cn3)nc2n1C1CCCC1,"patient-derived GBM lines sample A, sample B, sample C, sample D",cell viability,,72 h,IC50,0.8 to 3.6 µM
CC(C)NCCc1c[nH]c2cccc(O)c12.O=C(O)/C=C/C(=O)O,,,C57BL/6J mice,"subcutaneous, 0.03 mg/kg",head twitch count,6.4 ± 1
Clc1nc[n]([Au][PH](c2ccccc2)(c2ccccc2)c2ccccc2)c1Cl,NCI-H661 parental,"cell viability, MTT",,48 h,IC50,1.1 µM

# Some of these lines once more:
SMILES,target or system,assay,system,setting,quantity,result
Cc1cc(O)c2c(c1)C(=O)C=CC2=O,HFF-1,"cytotoxicity, MTT",,48 h,IC50,4.7 µM
Cc1ccc(NS(=O)(=O)c2cccc(C(=O)NC3CCN(c4ncnc5[nH]cnc45)CC3)c2)cc1,A549-ACE2,,,,IC50,> 200 µM
